Assay results of several laboratories.
Every numbered part comes from another study and shows a few of its results, in no order.
Chain of UniProt P10721 (whole entry, unmodified, looked up): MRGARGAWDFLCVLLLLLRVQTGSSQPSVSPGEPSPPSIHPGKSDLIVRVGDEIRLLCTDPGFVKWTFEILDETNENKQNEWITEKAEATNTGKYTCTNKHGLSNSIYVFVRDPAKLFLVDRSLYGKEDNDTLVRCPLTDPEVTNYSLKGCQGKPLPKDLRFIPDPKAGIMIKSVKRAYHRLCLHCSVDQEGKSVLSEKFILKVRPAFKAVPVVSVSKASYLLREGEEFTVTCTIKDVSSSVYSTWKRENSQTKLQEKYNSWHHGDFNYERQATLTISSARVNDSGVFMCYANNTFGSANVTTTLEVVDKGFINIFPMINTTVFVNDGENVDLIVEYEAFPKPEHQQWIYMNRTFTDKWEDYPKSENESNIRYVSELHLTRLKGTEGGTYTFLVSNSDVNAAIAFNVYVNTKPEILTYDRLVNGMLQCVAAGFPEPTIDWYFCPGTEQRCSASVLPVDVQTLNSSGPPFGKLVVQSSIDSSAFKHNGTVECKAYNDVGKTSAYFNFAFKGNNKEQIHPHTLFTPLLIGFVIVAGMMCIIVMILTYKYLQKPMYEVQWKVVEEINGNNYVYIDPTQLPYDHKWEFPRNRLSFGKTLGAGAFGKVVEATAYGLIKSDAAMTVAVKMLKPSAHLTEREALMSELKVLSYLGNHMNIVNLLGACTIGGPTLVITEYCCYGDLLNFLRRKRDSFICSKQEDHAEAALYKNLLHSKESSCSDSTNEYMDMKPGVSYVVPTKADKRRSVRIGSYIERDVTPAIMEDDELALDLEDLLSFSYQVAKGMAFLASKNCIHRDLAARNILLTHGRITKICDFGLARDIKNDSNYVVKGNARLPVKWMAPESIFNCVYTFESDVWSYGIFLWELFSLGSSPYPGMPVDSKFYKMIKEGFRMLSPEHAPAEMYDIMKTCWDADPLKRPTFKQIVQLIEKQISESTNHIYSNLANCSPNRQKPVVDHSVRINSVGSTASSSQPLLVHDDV
Chain of UniProt Q8IWQ3 (whole entry, looked up): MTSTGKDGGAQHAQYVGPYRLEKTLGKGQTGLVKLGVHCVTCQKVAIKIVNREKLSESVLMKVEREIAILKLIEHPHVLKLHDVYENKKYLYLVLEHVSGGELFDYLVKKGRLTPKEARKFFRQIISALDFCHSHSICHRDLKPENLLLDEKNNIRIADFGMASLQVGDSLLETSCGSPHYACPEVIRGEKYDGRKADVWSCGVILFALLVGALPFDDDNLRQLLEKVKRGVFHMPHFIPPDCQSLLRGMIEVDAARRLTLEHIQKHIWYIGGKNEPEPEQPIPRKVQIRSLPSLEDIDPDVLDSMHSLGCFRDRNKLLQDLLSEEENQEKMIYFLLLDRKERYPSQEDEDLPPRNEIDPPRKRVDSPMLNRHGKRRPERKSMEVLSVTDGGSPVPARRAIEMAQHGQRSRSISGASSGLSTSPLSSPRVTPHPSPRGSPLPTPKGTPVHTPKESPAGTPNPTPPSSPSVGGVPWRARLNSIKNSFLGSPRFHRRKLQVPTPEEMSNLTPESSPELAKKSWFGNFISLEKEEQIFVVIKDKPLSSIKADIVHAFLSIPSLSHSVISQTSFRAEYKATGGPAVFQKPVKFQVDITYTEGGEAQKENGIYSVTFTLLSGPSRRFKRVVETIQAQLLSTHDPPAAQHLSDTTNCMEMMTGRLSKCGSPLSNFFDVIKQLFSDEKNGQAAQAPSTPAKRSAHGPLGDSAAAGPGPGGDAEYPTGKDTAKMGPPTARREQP
Chain of UniProt Q8N568 (whole entry, looked up): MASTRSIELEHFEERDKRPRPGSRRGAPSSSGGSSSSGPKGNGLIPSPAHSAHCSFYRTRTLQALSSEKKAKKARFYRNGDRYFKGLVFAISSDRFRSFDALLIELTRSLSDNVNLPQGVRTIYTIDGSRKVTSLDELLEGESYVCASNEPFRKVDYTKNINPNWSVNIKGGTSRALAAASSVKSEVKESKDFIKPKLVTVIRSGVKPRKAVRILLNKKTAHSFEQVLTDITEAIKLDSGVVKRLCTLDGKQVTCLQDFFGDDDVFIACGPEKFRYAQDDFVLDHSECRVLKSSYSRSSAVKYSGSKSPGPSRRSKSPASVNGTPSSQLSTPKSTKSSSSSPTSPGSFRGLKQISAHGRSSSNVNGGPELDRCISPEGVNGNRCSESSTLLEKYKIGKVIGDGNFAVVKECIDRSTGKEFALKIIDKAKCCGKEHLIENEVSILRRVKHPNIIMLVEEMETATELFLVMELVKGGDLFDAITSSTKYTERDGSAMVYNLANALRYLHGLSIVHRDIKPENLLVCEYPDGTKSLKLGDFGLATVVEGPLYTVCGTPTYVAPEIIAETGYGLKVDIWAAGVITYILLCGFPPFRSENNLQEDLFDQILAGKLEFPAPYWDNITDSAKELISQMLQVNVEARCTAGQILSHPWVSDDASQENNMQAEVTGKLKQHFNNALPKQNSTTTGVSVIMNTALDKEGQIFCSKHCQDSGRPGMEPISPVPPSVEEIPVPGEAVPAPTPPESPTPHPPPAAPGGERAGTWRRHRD
Chain of UniProt O14757 (whole entry, looked up): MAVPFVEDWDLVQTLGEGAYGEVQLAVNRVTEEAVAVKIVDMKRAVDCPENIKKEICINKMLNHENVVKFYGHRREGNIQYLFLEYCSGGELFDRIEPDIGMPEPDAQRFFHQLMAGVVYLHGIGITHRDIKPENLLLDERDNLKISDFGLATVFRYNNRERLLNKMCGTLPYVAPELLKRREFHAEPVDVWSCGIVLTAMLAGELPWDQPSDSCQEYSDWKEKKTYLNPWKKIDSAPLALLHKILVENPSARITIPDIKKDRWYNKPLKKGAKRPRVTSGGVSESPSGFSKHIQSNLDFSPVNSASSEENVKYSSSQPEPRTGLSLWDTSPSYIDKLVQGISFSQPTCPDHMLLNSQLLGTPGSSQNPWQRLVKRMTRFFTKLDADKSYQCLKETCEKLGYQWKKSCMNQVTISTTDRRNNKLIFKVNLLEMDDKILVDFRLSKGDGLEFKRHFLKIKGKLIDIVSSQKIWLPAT
Chain of UniProt Q9UIK4 (whole entry, looked up): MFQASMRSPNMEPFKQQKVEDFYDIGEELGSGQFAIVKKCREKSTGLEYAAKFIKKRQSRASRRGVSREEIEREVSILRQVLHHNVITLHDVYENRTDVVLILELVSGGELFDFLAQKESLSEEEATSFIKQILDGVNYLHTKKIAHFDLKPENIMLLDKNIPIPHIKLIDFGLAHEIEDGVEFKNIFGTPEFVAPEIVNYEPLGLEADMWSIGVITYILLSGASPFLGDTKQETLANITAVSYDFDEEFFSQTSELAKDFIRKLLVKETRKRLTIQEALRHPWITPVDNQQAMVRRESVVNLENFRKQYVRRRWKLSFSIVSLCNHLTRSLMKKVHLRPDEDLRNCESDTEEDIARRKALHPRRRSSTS

Sample 1
Target: Serine/threonine-protein kinase TAO1 (TAOK1, Homo sapiens, UniProt Q7L7X3)
Chain of UniProt Q7L7X3 (whole entry, looked up): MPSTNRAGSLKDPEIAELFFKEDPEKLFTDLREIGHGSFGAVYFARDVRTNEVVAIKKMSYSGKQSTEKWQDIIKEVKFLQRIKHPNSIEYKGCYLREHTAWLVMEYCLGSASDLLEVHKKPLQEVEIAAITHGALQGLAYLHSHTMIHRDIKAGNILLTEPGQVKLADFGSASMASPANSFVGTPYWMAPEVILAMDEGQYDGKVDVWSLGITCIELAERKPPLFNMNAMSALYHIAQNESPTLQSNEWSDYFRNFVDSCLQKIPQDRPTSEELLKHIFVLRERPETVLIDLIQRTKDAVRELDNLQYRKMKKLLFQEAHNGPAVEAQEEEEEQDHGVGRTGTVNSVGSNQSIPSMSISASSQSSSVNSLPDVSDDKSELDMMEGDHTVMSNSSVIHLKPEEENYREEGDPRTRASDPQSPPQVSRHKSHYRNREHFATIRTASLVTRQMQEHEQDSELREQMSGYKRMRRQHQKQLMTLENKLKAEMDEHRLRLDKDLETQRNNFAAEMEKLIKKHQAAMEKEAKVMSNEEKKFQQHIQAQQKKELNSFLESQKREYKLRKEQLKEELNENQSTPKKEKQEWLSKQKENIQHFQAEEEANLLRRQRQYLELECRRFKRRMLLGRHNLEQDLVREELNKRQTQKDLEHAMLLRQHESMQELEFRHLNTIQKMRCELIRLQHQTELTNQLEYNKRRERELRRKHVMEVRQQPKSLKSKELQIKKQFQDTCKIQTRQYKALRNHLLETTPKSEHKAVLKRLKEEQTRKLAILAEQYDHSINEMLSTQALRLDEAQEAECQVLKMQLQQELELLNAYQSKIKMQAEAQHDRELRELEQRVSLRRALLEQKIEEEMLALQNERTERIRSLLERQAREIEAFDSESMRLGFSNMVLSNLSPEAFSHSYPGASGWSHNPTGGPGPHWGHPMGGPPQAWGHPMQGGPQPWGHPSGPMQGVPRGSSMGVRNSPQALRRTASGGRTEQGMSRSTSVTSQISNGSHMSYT
Observed: enzyme activity
Action: inhibitor
Tested at: 0.5 µM
Reference: control
SMILES | remaining activity [%]
COc1cc2c(cc1OC)-c1[nH]nc(Nc3cccc(F)c3)c1C2 | 76.3
O=C1c2ccccc2-c2n[nH]c3cccc1c23 | 92.5
CN([C@@H](Cc1ccc(OS(=O)(=O)c2cccc3cnccc23)cc1)C(=O)N1CCN(c2ccccc2)CC1)S(=O)(=O)c1cccc2cnccc12 | 98.7
COc1cc2ncnc(Nc3cccc(Cl)c3)c2cc1OC | 108
O=C(Nc1cccc(Nc2nccc(Nc3cccc(C(F)(F)F)c3)n2)c1)C1CC1 | 97.9
COc1cc2ncnc(Nc3ccc(O)c(Br)c3)c2cc1OC | 93.3
C[C@@H]1CCN(C(=O)CC#N)C[C@@H]1N(C)c1ncnc2[nH]ccc12 | 99.9

Sample 2
Compound: O=C(NCCCC1CCCCC1)c1ccc(CNC(=O)c2cnn(-c3ccccc3)c2C(F)(F)F)cc1
Observed: cell-free assay
Technique: competition with immobilised ligand
Tested at: 0.1 µM
target | remaining binding [%]
Serine/threonine-protein kinase MRCK beta (CDC42BPB, Homo sapiens, UniProt Q9Y5S2) | 100
SRSF protein kinase 2 (SRPK2, Homo sapiens, UniProt P78362) | 100
Activin receptor type-1-like (ACVRL1, Homo sapiens, UniProt P37023) | 100
Homeodomain-interacting protein kinase 2 (HIPK2, Homo sapiens, UniProt Q9H2X6) | 100
Phosphatidylinositol 5-phosphate 4-kinase type-2 beta (PIP4K2B, Homo sapiens, UniProt P78356) | 96
Cyclin-dependent kinase 17 (CDK17, Homo sapiens, UniProt Q00537) | 100
Phosphatidylinositol 3-kinase catalytic subunit type 3 (PIK3C3, Homo sapiens, UniProt Q8NEB9) | 100
Serine/threonine-protein kinase LATS2 (LATS2, Homo sapiens, UniProt Q9NRM7) | 97
Serine/threonine-protein kinase DCLK3 (DCLK3, Homo sapiens, UniProt Q9C098) | 100
Dual specificity mitogen-activated protein kinase kinase 5 (MAP2K5, Homo sapiens, UniProt Q13163) | 73
Mast/stem cell growth factor receptor Kit (KIT, Homo sapiens, UniProt P10721, T670I/V559D) | 100
Serine/threonine-protein kinase BRSK2 (BRSK2, Homo sapiens, UniProt Q8IWQ3) | 100
Mast/stem cell growth factor receptor Kit (KIT, Homo sapiens, UniProt P10721, V559D/V654A) | 100
Death-associated protein kinase 3 (DAPK3, Homo sapiens, UniProt O43293) | 92
Phosphatidylinositol 3-kinase C2 domain-containing subunit gamma (PIK3C2G, Homo sapiens, UniProt O75747) | 100
Serine/threonine-protein kinase DCLK2 (DCLK2, Homo sapiens, UniProt Q8N568) | 100
Mast/stem cell growth factor receptor Kit (KIT, Homo sapiens, UniProt P10721) | 100
Serine/threonine-protein kinase TAO1 (TAOK1, Homo sapiens, UniProt Q7L7X3) | 96

Sample 3
Target: Calcium/calmodulin-dependent protein kinase type II subunit alpha (CAMK2A, Homo sapiens, UniProt Q9UQM7)
Chain of UniProt Q9UQM7 (whole entry, looked up): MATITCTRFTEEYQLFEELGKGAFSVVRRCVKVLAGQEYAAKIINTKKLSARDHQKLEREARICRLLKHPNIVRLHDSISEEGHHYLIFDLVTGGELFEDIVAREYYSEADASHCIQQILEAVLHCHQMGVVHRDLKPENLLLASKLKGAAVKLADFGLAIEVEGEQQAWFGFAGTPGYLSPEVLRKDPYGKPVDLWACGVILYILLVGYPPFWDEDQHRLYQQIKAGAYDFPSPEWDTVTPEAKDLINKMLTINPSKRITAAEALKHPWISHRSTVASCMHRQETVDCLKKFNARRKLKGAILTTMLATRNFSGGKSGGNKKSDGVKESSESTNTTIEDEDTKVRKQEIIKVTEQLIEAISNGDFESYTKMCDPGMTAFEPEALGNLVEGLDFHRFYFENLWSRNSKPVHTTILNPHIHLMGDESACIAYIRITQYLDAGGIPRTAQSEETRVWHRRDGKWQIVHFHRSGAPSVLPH
Observed: enzyme activity
Action: inhibitor
Tested at: 10 µM
Compound | inhibition
CCN1CCN(Cc2ccc(Nc3ncc(F)c(-c4cc(F)c5nc(C)n(C(C)C)c5c4)n3)nc2)CC1 | 69%
COc1ccc(-c2oc3c(CCC(C)(C)O)c(O[C@@H]4O[C@H](CO)[C@@H](O)[C@H](O)[C@H]4O)cc(O)c3c(=O)c2O)cc1 | -19%
NC(=O)Cc1cccc(C(=O)c2ccccc2)c1N | -4%
O[C@H]1[C@H]2c3cc4c(cc3CN3CCC(=C[C@@H]1O)[C@H]23)OCO4 | -3%
N#Cc1c(N2C[C@@H]3NCCO[C@H]3C2)c(F)cc2c(=O)c(C(=O)O)cn(C3CC3)c12 | -2%
Cc1cc2c(s1)Nc1ccccc1N=C2N1CCN(C)CC1 | -1%
CC(C)[C@@H](C)/C=C/[C@@H](C)[C@H]1CC[C@H]2C3=CC=C4C[C@@H](O)CC[C@@]4(C)[C@@H]3CC[C@]12C | -6%
CC(C)=CCC[C@@H](C)[C@H]1CC[C@H]2[C@@H]3CC=C4C[C@@H](O)CC[C@]4(C)[C@H]3CC[C@]12C | -7%
Cc1c(C)c2c(c(C)c1O)CC[C@@](C)(CCC[C@H](C)CCC[C@H](C)CCCC(C)C)O2 | -0.01%
Cc1nc(Nc2ccc(F)cc2)nc(N2CCc3ccccc3C2C)c1C (stereo not drawn) | 5%
COC(=O)C1=C(C)NC(C)=C(C(=O)OCCN2CCN(C(c3ccccc3)c3ccccc3)CC2)C1c1cccc([N+](=O)[O-])c1 (stereo not drawn) | -2%

Sample 4
SMILES: COc1ccc2[nH]c3c4[nH]c5ccc(OC)cc5c4c4c(c3c2c1)C(=O)NC4=O
Tested at: 1 µM
target | test | conditions | how to read | remaining binding [%]
Serine/threonine-protein kinase Chk1 (CHEK1, Homo sapiens, UniProt O14757) | competitive binding panel |  | reference: vehicle | 12
Calcium/calmodulin-dependent protein kinase kinase 2 (CAMKK2, Homo sapiens, UniProt Q96RR4) | competitive binding panel |  | reference: vehicle | 74
Serine/threonine-protein kinase MRCK gamma (CDC42BPG, Homo sapiens, UniProt Q6DT37) | competitive binding panel, refers to: DMPK2 |  | reference: vehicle | 84
Beta-adrenergic receptor kinase 1 (GRK2, Homo sapiens, UniProt P25098) | competitive binding panel |  | reference: vehicle | 88
Calcium/calmodulin-dependent protein kinase type II subunit beta (CAMK2B, Homo sapiens, UniProt Q13554) | competitive binding panel |  | reference: vehicle | 100
Serine/threonine-protein kinase D3 (PRKD3, Homo sapiens, UniProt O94806) | competitive binding panel |  | reference: vehicle | 75
Serine/threonine-protein kinase 10 (STK10, Homo sapiens, UniProt O94804) | competitive binding | LOK |  | 88
Serine/threonine-protein kinase 36 (STK36, Homo sapiens, UniProt Q9NRP7) | competitive binding panel |  | reference: vehicle | 70
Death-associated protein kinase 2 (DAPK2, Homo sapiens, UniProt Q9UIK4) | competitive binding panel |  | reference: vehicle | 4.9

For quick reference, copied from above (sample 2):
target | remaining binding [%]
Dual specificity mitogen-activated protein kinase kinase 5 (MAP2K5, Homo sapiens, UniProt Q13163) | 73
Phosphatidylinositol 3-kinase C2 domain-containing subunit gamma (PIK3C2G, Homo sapiens, UniProt O75747) | 100
Cyclin-dependent kinase 17 (CDK17, Homo sapiens, UniProt Q00537) | 100
Death-associated protein kinase 3 (DAPK3, Homo sapiens, UniProt O43293) | 92
